Published values pooled from the literature.
Values joined by “and” are separate records of one study, mostly repeats; a detail may differ. Numbers after ± are the reported error.

Cn1cc(-c2ccc(-c3cncc(Cl)c3N3CCC4(CCNC4=O)CC3)cc2)cn1 — result for “fold change in expression”: 1.14 (COLO 205; microarray, measured: PDGFB; concentration not given, 6 h; baseline: untreated cells).
The viability of CC(C)[C@H](C(=O)Nc1ccc(C(=O)NO)cc1)c1ccccc1 is reported as 0.708% (HBL-1; 1 µM, 120 h).
The IC50 of Cc1[nH]c(C)c(-c2ccc(CCc3ccc(N)cc3)cc2)c(=O)c1Cl is reported as 450 ± 27 nM (Plasmodium yoelii; 17XL; 384-well).
For Clc1ccc(N/N=C(\c2ccccc2)c2ccccn2)nc1, the viability was 5.58% (HBL-1; 0.5 µM, 120 h).
Cc1cccc2nc(-c3ccc(-c4cccc(CNCCCN5CCCC5=O)c4)cc3)[nH]c12 has an IC50 of > 20000 nM (Plasmodium yoelii; 17XL; 384-well).
The viability of O=c1ncccn1[C@@H]1O[C@H](CO)[C@@H](O)[C@H]1O is reported as 100% (HBL-1; 1 µM, 120 h).
For O=C(/C=C/C=C/C=C/C1CCCCC1)NC1=C[C@@](O)(/C=C/C=C/C=C/C(=O)NC2=C(O)CCC2=O)[C@@H]2O[C@@H]2C1=O, the GI50 was 7940 nM (hcc1359; cell growth, inhibitor, CellTiter-Glo luminescence; 78 h; baseline: day 0 cell count).
O=C(O)CNC(=O)Cc1ccccc1 has a sarcomere length of 1.69 µm (ventricular cardiomyocytes, C57BL/6 mouse; dose not given, 0.468 s).
The IC50 of Cc1cc(=O)c2cc(-c3ccc(OC(F)(F)F)cc3)ccc2[nH]1 is reported as 1910 ± 264 nM (Plasmodium yoelii; 17XL; 384-well).
The inhibition of O=C(Nc1cccc(C2=NCCN2)c1)Nc1cccc(C2=NCCN2)c1 is reported as 13.5% (Theileria equi; parasite growth, flow cytometry; horse erythrocytes, USDA Florida strain; 0.043 µM, 72 h).
With C[C@H]1O[C@@H](O[C@H]2CC[C@@]3(C)[C@@H](CC[C@]4(C)[C@@H]3C=C[C@]35OC[C@@]6(CCC(C)(C)C[C@H]63)[C@@H](O)C[C@]54C)[C@]2(C)CO)[C@H](O)[C@@H](O[C@@H]2O[C@H](CO)[C@@H](O)[C@H](O)[C@H]2O)[C@H]1O the protein level was 0.307 and 0.795 and 0.758 (Western blot, measured: caspase3; chronic-plus-binge ethanol-fed mice, liver; dose not given, medium dose, unit not given; baseline: β-actin).
Under “EEG power, alpha, Fz-Cz”, OC(CCN1CCCCC1)(c1ccccc1)C1CC2C=CC1C2 (centres unmarked) is recorded as 4.5 µV² (resting-state EEG; healthy elderly humans; oral, 2 mg, eyes open, LS mean).
For c1coc(-c2n[nH]cc2-c2ccnc3ccccc23)c1, “log2 fold change” read -0.21 (ENV7 (Candida albicans); kinase binding, MIB/MS competition; Candida albicans lysate; 1 µM; baseline: DMSO).
O=C(c1ccc(C(=O)N2CCC(N3CCCC3)CC2)c(Nc2ccccc2)c1)N1CCC(N2CCCC2)CC1 has a viability of 95.8% (HBL-1; 1 µM, 120 h).
COc1cnc2cccc(N3CCc4c(cc(Cn5ccnc5C)cc4-c4cn(C)nc4C(F)(F)F)C3=O)c2c1 gave an EC50 of 30600 nM (JHOC5; cell growth; 120 h).
Cc1ncsc1-c1ccc([C@H](CC(=O)NCCOCCOCCOCCOCCOCCC(=O)N2CCC(Nc3cc(C(=O)NC[C@H](O)CN4CCc5ccccc5C4)ncn3)CC2)NC(=O)[C@@H]2C[C@@H](O)CN2C(=O)[C@@H](NC(=O)C2(F)CC2)C(C)(C)C)cc1 gave a Dmax of > 85% (human MEP50; degrader, Western blot; MDA-MB-468; 72 h).
Cc1[nH]c(C)c([N+](=O)[O-])c(=O)c1-c1ccc(Oc2ccc(OC(F)(F)F)cc2)cc1 gave an IC50 of 834 ± 810 nM (Plasmodium yoelii; 17XL; 384-well).
With COc1ccc(F)cc1C(=O)NCc1ccc(-c2nn([C@@H](C)C(F)(F)F)c(N)c2C(N)=O)cc1 the inhibition was 1.4% (MEK1/MEK2 human; probe binding, competitive chemoproteomics; human PBMCs; 0.1 µM).
Oc1ccccc1-c1n[nH]cc1-c1ccnc2ccccc12: “log2 fold change” 0.14 (ENV7 (Candida albicans); kinase binding, MIB/MS competition; Candida albicans lysate; 10 µM; baseline: DMSO).
CCOC(=O)CCNc1cc(N2CCc3ccccc3CC2)nc(-c2ccccn2)n1 has a viability of 102% (HBL-1; 1 µM, 120 h).
CC(C)NCC(O)c1ccc(O)c(O)c1 (centres unmarked) has a sarcomere length of 1.72 µm (ventricular cardiomyocytes, C57BL/6 mouse; dose not given, 0.032 s).
For CCN1CCN(Cc2ccc(Nc3ncc(F)c(-c4cc(F)c5nc6n(c5c4)[C@H](C)CCC6)n3)nc2)CC1, the partial response was 0% (human advanced solid tumours; 100 mg, phase Ia monotherapy RECIST 1.1).
Cc1[nH]c(C)c(-c2ccc(-c3ccccc3Cl)nc2)c(=O)c1Br has an IC50 of 463 ± 139 nM (Plasmodium yoelii; 17XL; 384-well).
With Cc1ccc(NC(=O)CCCCCC(=O)Nc2ccccc2N)cc1 the viability was 94.6% (HBL-1; 1 µM, 120 h).
With Cc1[nH]c(C)c(-c2ccc(OCc3ccc(OC(F)(F)F)cc3)nc2)c(=O)c1Br the IC50 was 174 ± 43 nM (Plasmodium yoelii; 17XL; 384-well).
With CCn1cc(-c2cc(Cn3ccnc3)cc3c2CCN([C@H](c2cc(OC)ccn2)C2CC2)C3=O)c(C(F)(F)F)n1 the EC50 was 2310 nM (KYSE-70; cell growth, inhibitor; 120 h).
For Cc1[nH]c(C)c(-c2ccc(OCc3cc(C(F)(F)F)cc(C(F)(F)F)c3)nc2)c(=O)c1Br, the IC50 was 105 ± 42 nM (Plasmodium yoelii; 17XL; 384-well).
For NC(=O)c1cnc2[nH]ccc2c1N[C@@H]1[C@@H]2CC3C[C@H]1C[C@@](O)(C3)C2, “CD4+CD28+ naive T-cell change” read -0.77% (flow cytometry; Japanese healthy men, blood; oral, 30 mg twice daily, 72 h after day 7 dose; baseline: baseline).
C#CCCC(=O)SCCNC(=O)CCNC(=O)[C@H](O)C(C)(C)COP(=O)(O)OP(=O)(O)OC[C@H]1O[C@@H](n2cnc3c(N)ncnc32)[C@H](O)[C@@H]1OP(=O)(O)O has a viability of 123% (HBL-1; 0.1 µM, 120 h).
For Cc1nc(C)c(-c2ccc(C(=O)c3ccccc3)cc2)c(O)c1Br, the IC50 was 425 ± 87 nM (Plasmodium yoelii; 17XL; 384-well).
For CCOc1ccc2cc(-c3nn(CC4CCN(C)CC4)c4ncnc(N)c34)ccc2n1, “% of maximum PPE” read 103% (Theileria equi; hydroethidine flow cytometry; USDA Florida; 0.3 µM, 72 h).
The viability of C#Cc1cccc(Nc2ncnc3cc(OC)c(OCCCCCCC(=O)NO)cc23)c1 is reported as 6.95% (HBL-1; 1 µM, 120 h).
